# Measured values of several laboratories.
# A part holds a random share of what one study measured.

# Sample 1
# Target: HLA class I histocompatibility antigen, A alpha chain, allele A*26:03 (Homo sapiens, UniProt P04439)
# Observed: peptide-MHC binding
# Molecule type: peptide
# Concentration: concentration not given
Molecule,binding
IEAGDEVFF,inactive
IARLVYKAR,inactive
YQAFRTKVH,inactive
EELRSLFNTV,inactive
ETFRLLRSF,inactive

# Sample 2
# Target: UBE2D2 UBC core domain (UniProt P62837)
# UniProt P62837, sequence (whole entry, looked up): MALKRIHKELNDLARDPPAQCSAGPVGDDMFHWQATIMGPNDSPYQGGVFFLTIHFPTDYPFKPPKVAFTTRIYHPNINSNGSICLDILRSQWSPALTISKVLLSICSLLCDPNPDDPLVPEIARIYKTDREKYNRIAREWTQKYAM
# Technique: yeast two-hybrid
# Sample: yeast
# Notes: mostly zero background
# Relative to: not given
# Direction: higher = stronger interaction
# B1: ZNF598 RING domain (UniProt Q86UK7); chain AAAPERGGGSCVLCCGDLEATALGRCDHPVCYRCSTKMRVLCEQRYCAVCREELRQVVFGK
# B2: TRIM63 RING domain (UniProt Q969Q1); chain PMENLEKQLICPICLEMFTKPVVILPCQHNLCRKCANDIFQAANPYWTSRGSSVSMSGGRFRCPTCRHEVIMDRHGV
Molecule,lacZ reporter activity
B1 (ZNF598 RING domain),0
B2 (TRIM63 RING domain),0
QLRRLQEERTCKVCMDKEVSVVFIPCGHLVVCQECAPSLRKCPICRGIIKGTVRTF (BIRC2 RING domain (UniProt Q13490)),0
FPEHFVKSISCQICEHILADPVETNCKHVFCRVCILRCLKVMGSYCPSCRYPCFPTDLES (RAG1 RING domain (UniProt P15918)),0
RLTMMWEEVTCPICLDPFVEPVSIECGHSFCQECISQVGKGGGSVCPVCRQRFLLKNLRP (TRIM21 RING domain (UniProt P19474)),0

# Sample 3
# Target: Fragile X messenger ribonucleoprotein 1, C-terminal low-complexity region (Fmr1, Mus musculus, UniProt P35922)
# Technique: RNA Bind-n-Seq
# Molecule type: RNA
# Sample: in vitro
# Concentration: 200 nM
# Notes: whole 134-nt RNA, ends assumed
# Together with: 150 mM KCl
# Relative to: input library
# Direction: higher = stronger binding
# Shared flanks, not repeated: GGGAGUUCUACAGUCCGACGAUC … UGGAAUUCUCGGGUGUCAAGG
Oligonucleotide,log2 enrichment
CAAGUCCUGUGCUACACAUCGUAUGUACCGAAUCGGGGUUUGGGUUUGGUUUGGGGAAAGUAUUAUGUUACGCCGUUCGGAUCUGCACUU,0.377
CCUGUGCUACACAUCGUAUGUACCGAAUCGGGGUGGGGAAAAAAAGGGGAAAAAAAGGGGAAAGUAUUAUGUUACGCCGUUCGGAUCUGC,0.0325
CCUCAAGUCCUGUGCUACACAUCGUAUGUACCGAAUCGGUUUGGAAAGGAGGAAAGUAUUAUGUUACGCCGUUCGGAUCUGCACUUCCAG,0.233
CCUCAAGUCCUGUGCUACACAUCGUAUGUACCGAAUCGGUUUGGUGGAAAGGAAAGUAUUAUGUUACGCCGUUCGGAUCUGCACUUCCAG,0.269
CAAGUCCUGUGCUACACAUCGUAUGUACCGAAUCGGUUUUUUUGGUGGAAAAAGGAAAGUAUUAUGUUACGCCGUUCGGAUCUGCACUUC,-0.562
UCCUGUGCUACACAUCGUAUGUACCGAAUCGGGGUUUUUUUGGGGAGGGGAAAAAGGGGAAAGUAUUAUGUUACGCCGUUCGGAUCUGCA,0.447
CCUCAAGUCCUGUGCUACACAUCGUAUGUACCGAAUCGGUUUUUGGAGGAGGAAAGUAUUAUGUUACGCCGUUCGGAUCUGCACUUCCAG,0.138
AGUCCUGUGCUACACAUCGUAUGUACCGAAUCGGGGUUUGGGGAAAAAGGGGUGGGGAAAGUAUUAUGUUACGCCGUUCGGAUCUGCACU,0.787

# Sample 4
# Target: Prothrombin, mature alpha-thrombin (F2, Homo sapiens, UniProt P00734)
# Technique: aptamer microarray, sandwich
# Molecule type: DNA with 2'F-ANA
# Sample: in vitro
# Concentration: 200 nM
# Notes: whole 15-mer aptamer, many near background
# Together with: Cy3 exosite-II aptamer, 400 nM
# Direction: higher = stronger binding
# Oligonucleotide: GGTTGGTGTGGTTGG
Modification,mean fluorescence intensity
2'F-ANA at 2 4 5 7 9 11 12 13 14 15,74.2 a.u.
2'F-ANA at 1 2 3 4 6 14 15,89.8 a.u.
2'F-ANA at 1 2 3 4 5 6 8 10 13 14,48.1 a.u.
2'F-ANA at 1 3 8 9 11 12 13 14,106 a.u.
2'F-ANA at 5 8 9 13 14,47.1 a.u.
2'F-ANA at 3 4 6 8 9 10 11 13 14 15,140 a.u.
2'F-ANA at 1 2 3 4 6 7 8 9 12,354 a.u.
2'F-ANA at 2 3 4 6 7 8 10 11 13 14,153 a.u.

# Some of these lines once more (sample 1):
Molecule,binding
ETFRLLRSF,inactive
IEAGDEVFF,inactive
IARLVYKAR,inactive
